# Experimental data from different studies.
# Protocols differ between the studies behind these lines.
Structure (SMILES),test,test system,setting,endpoint,value
COc1ccc([C@@H](O)c2cc(-c3ncnc4cc(N5CCOCC5)ccc34)c(F)cc2Cl)nn1,,"human, plasma","oral, 200 mg, multiple doses, twice daily, patients",AUC(0-t),14200 ng·h/mL
COc1ccc2c(=O)n(C)c(-c3ccccc3)nc2c1,,"male Sprague-Dawley rat, muscle","oral, 30 mg/kg, 2 h, single dose",concentration,1.64 ng/mL
CCN1CCN(Cc2ccc(NC(=O)c3ccc(C)c(NC(=O)c4cncc(-c5cccs5)c4)c3)cc2C(F)(F)F)CC1,,"mouse, plasma","intraperitoneal, 30 mg/kg, single dose",CL/F,157 mL/min/kg
CC1(C)CC[C@]2(NC(=O)C(C)(F)F)CC[C@]3(C)[C@H](C(=O)C=C4[C@@]5(C)C=C(C#N)C(=O)C(C)(C)[C@@H]5CC[C@]43C)[C@@H]2C1,,"human, plasma","oral, 150 mg, single dose",Vd/F,9250 L
Cc1cccc(CNc2nc(-c3ccccn3)nc3ccccc23)n1,,PAMPA,"10 µM, 3 h, pH 7.4",Papp,23.6 ×10⁻⁶ cm/s
Cc1cc2sc(N)nc2c2cccnc12,,"female BALB/c mouse, plasma","intraperitoneal, 30 mg/kg, single dose",MRT(0-inf),4.89 h
N=C(N)c1cccc(OCCCCCOc2cccc(C(=N)N)c2)c1,haemolysis,sheep,"200 µg/mL, 1 h",haemolysis,0.1%
CC[C@@](N)(c1cnc(C(F)(F)F)c(Cl)c1)c1c2ccn(C3CC3)c(=O)c2nn1C,metabolic stability,"male Sprague-Dawley rat, hepatocytes","0.5 µM, pH 7.4",hepatocyte CLint,0.8 µL/min/10⁶ cells
N#Cc1cccc(-c2nc(N3CCC(c4ccccn4)C3)c3ccccc3n2)c1 (stereo not shown),metabolic stability,"mouse, liver microsomes",,microsomal CLint,561 µL/min/mg
NCc1cc2c(cc1F)C(=O)N(C1CCC(=O)NC1=O)C2 (stereo not shown),,"male CD-1 mouse, plasma","intravenous, 1 mg/kg, 15 min",concentration,56.5 ng/mL
CC(C)(O)c1ccccc1CC[C@@H](SCC1(CC(=O)O)CC1)c1cccc(/C=C/c2ccc3ccc(Cl)cc3n2)c1,,"human, hepatocytes","4 h, pH 7.4",fraction unbound,0.0015
CCOC(=O)[C@@]12C[C@@H]1[C@@H](n1ccc3c(NC)nc(C#Cc4ccc(Cl)s4)nc31)[C@H](O)[C@@H]2O,,"male Sprague-Dawley rat, plasma","oral, 10 mg/kg, 2 h",concentration,79 ng/mL
COc1cc2c3c(n(CCCN4CCOCC4)c(=O)c2cc1OC)-c1cc2c(cc1C3=O)OCO2,,"male beagle dog, plasma","intravenous, 100 mg/m², infusion",AUC(0-inf),1850 ng·h/mL
COc1cccc(-c2n[nH]c(SCc3ccccn3)n2)c1OC,,"male Sprague-Dawley rat, plasma","oral, 10 mg/kg, 8 h, single dose",concentration,25.6 ng/mL
O=C(N1CCCCC1)C12CC(c3ccccc3)(C1)C2,metabolic stability,"human, liver microsomes","2 µM, 7 min, pH 7.4",compound remaining,93%
CCC(C)n1ncn(-c2ccc(N3CCN(c4ccc(OCC5COC(Cn6cncn6)(c6ccc(Cl)cc6Cl)O5)cc4)CC3)cc2)c1=O (stereo not shown),metabolic stability,"human, hepatocytes","0.5 µM, pH 7.4",hepatocyte CLint,36.6 µL/min/10⁶ cells
CC[C@H](C)[C@@H]1NC(=O)[C@@](C)(NC(=O)[C@H](CCCNC(=N)N)NC(=O)[C@H](CC(C)C)NC(=O)[C@@H](NC(=O)[C@H](CCC(N)=O)NC(=O)[C@H](CC(C)C)NC(C)=O)[C@@H](C)O)CCCC=CCCC[C@@](C)(C(=O)N[C@@H](CC(C)C)C(=O)N[C@@H](Cc2ccc3ccccc3c2)C(N)=O)NC(=O)[C@H](CCCNC(=N)N)NC(=O)[C@H](CCC(N)=O)NC1=O,,"male BALB/c mouse, plasma","intravenous, 15 mg/kg",AUC,160 µM·h
CNC(=O)c1cc(OC)cc2c(N3CCc4c(cc(Cn5ccnc5)cc4-c4cn(C)nc4C(F)(F)F)C3=O)ccnc12,,"male CD-1 mouse, plasma","intravenous, 3 mg/kg",MRT(0-inf),0.4 h
N=C(N)c1ccccc1OCCCCCOc1ccccc1C(=N)N,haemolysis,sheep,"200 µg/mL, 1 h",haemolysis,0%
CCOCC(=O)N1C2CCC(C(=O)NCc3nc(-c4ccc(C#N)cc4)cs3)C1CC2 (stereo not shown),metabolic stability,"male Sprague-Dawley rat, liver microsomes",0.5 µM,microsomal CLint,130 µL/min/mg
O=C(c1ccc(F)cc1)C1CCN(CCn2c(=O)[nH]c3ccccc3c2=O)CC1,metabolic stability,"dog, liver microsomes",5 min,compound remaining,96.4%
COc1ccc2c(c1)CN(C(=O)CCN1CCC(Cc3ccccc3)CC1)CC[S@@+]2[O-],,"male human, plasma","intravenous, 0.01 mg/kg, healthy volunteers",AUC(0-inf),46.4 ng·h/mL
COCC(=O)N1CCC[C@H](C(=O)NCc2nc(-c3ccccc3)cs2)C1,metabolic stability,"male Sprague-Dawley rat, liver microsomes",0.5 µM,scaled CLint,34 mL/min/kg
O=C1CC[C@H](N2Cc3cc(N4CCN(CC5CCN(c6ccc([C@@H]7c8ccc(O)cc8CC[C@@H]7c7ccccc7)cc6)CC5)CC4)ccc3C2=O)C(=O)N1,,"female Sprague-Dawley rat, plasma","intravenous, 5 mg/kg, fed",AUC(0-t),11400 ng·h/mL
C[C@H](C(=O)NCc1ccccc1)N1C(=O)CCC1=O,rotarod,male C57BL/6 mouse,intraperitoneal,TD50,168 mg/kg
COc1nc(-c2cc(C)c(N[C@@H](C)c3cc(F)cc(F)c3)nn2)ccc1-n1cnc(C)c1,,"male Sprague-Dawley rat, plasma","oral, 5 mg/kg, single dose",bioavailability,79.4%
Cc1cccnc1CNc1nc(-c2ccccn2)nc2ccccc12,metabolic stability,"mouse, liver microsomes",,microsomal CLint,97 µL/min/mg
O=C(COc1ccc(Cl)cc1)NC12CC(c3nnc([C@H]4C[C@@H](OC(F)(F)F)C4)o3)(C1)C2,,"human, plasma","oral, 200 mg, single dose, fasted, healthy volunteers",AUC,145 µM·h
Oc1cccc(-c2nc(N3CCC(c4ccccn4)C3)c3ccccc3n2)c1 (stereo not shown),metabolic stability,"mouse, liver microsomes",,microsomal CLint,628 µL/min/mg
C#C[C@]1(CO)O[C@@H](n2cnc3c(N)nc(F)nc32)C[C@@H]1O,,"monkey, plasma","oral, 10 mg/kg",AUC(0-t),20.7 µM·h
CCn1ccc2c([C@@](O)(CC)c3ccc(C(F)(F)F)nc3)n(C)nc2c1=O,metabolic stability,"human, hepatocytes","0.5 µM, pH 7.4",hepatocyte CLint,2 µL/min/10⁶ cells
N=C(N)c1ccc(OCc2ccc(COc3ccc(C(=N)N)cc3)cc2)cc1,haemolysis,sheep,"200 µg/mL, 1 h",haemolysis,0.2%
Cc1nn(C2CC2)c(=O)c2nn(C)c(Cc3ccc(C(F)(F)F)c(C#N)c3)c12,,Caco-2,,Papp B→A,76.9 ×10⁻⁶ cm/s
COc1cc(C(=O)NC2CCN(C)CC2)c(F)cc1Nc1ncc(C(F)(F)F)c(Oc2cccc3c2C(=O)N(C)C3)n1,,"human, plasma","oral, 300 mg, multiple doses, once daily, patients",Vd/F,200 L
O=c1c2c([nH]c3cccc(Oc4ccc(OC(F)(F)F)cc4)c13)CCCC2,metabolic stability,"mouse, liver microsomes","1 µM, pH 7.4",microsomal CLint,117 µL/min/mg
c1ccc(-c2nc(NCCn3cnc4ccccc43)c3ccccc3n2)nc1,metabolic stability,"mouse, liver microsomes",,microsomal CLint,538 µL/min/mg
N#C[C@@]12C[C@@H]1[C@@H](n1cnc3c(N[C@@H](C4CCC4)C4CC4)nc(I)nc31)[C@H](O)[C@@H]2O,,"male Wistar rat, plasma","oral, 3 mg/kg",Cmax,23.5 ng/mL
